Experimental data collected from several papers.
Every numbered part comes from another study and shows a few of its results, in no order. Several values in a cell are separate wells, animals, samples, runs or records.
Sequence of UniProt P00519 (whole entry, unmodified, looked up): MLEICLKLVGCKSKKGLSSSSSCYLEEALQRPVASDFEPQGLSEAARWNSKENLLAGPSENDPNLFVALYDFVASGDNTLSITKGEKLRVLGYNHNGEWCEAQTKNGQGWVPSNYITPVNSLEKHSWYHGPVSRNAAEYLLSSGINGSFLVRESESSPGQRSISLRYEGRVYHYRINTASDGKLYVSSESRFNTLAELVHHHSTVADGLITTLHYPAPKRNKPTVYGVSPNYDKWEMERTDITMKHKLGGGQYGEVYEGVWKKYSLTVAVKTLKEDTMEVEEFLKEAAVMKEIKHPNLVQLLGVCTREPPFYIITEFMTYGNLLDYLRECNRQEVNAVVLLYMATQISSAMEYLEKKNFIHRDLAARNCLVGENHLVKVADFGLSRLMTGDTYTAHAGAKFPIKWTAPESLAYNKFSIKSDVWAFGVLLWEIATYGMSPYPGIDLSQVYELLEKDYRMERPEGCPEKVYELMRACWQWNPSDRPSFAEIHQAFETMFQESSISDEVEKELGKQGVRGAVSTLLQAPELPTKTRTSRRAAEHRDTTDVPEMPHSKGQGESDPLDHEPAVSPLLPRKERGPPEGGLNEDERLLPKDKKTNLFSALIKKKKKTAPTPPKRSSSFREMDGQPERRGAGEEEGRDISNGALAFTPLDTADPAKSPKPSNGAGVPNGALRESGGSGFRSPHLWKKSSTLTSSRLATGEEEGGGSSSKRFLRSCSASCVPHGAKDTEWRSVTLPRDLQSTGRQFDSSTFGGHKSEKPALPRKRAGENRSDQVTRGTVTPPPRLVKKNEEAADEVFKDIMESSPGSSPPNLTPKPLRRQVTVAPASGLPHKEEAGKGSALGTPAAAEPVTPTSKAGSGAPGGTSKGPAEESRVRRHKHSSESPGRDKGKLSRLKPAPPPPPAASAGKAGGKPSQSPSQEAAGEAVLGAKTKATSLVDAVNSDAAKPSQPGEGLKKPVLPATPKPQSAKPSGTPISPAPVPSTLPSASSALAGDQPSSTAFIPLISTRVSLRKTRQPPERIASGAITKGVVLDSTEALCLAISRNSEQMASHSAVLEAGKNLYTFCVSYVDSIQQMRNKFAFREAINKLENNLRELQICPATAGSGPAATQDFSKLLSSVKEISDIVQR
Sequence of UniProt P49840 (whole entry, looked up): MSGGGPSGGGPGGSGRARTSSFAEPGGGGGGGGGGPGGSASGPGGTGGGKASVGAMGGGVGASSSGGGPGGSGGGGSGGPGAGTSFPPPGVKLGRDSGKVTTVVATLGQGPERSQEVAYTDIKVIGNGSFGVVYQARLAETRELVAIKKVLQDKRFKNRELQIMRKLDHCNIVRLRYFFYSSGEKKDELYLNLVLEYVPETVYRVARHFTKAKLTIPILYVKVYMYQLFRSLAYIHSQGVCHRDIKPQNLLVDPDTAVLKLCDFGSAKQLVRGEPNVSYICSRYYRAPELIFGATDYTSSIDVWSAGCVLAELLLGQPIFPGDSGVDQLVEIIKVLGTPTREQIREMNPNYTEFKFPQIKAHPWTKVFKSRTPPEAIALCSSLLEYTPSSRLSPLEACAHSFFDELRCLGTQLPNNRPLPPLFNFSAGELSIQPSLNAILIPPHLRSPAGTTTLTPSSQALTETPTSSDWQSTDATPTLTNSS
Sequence of UniProt O15146 (whole entry, looked up): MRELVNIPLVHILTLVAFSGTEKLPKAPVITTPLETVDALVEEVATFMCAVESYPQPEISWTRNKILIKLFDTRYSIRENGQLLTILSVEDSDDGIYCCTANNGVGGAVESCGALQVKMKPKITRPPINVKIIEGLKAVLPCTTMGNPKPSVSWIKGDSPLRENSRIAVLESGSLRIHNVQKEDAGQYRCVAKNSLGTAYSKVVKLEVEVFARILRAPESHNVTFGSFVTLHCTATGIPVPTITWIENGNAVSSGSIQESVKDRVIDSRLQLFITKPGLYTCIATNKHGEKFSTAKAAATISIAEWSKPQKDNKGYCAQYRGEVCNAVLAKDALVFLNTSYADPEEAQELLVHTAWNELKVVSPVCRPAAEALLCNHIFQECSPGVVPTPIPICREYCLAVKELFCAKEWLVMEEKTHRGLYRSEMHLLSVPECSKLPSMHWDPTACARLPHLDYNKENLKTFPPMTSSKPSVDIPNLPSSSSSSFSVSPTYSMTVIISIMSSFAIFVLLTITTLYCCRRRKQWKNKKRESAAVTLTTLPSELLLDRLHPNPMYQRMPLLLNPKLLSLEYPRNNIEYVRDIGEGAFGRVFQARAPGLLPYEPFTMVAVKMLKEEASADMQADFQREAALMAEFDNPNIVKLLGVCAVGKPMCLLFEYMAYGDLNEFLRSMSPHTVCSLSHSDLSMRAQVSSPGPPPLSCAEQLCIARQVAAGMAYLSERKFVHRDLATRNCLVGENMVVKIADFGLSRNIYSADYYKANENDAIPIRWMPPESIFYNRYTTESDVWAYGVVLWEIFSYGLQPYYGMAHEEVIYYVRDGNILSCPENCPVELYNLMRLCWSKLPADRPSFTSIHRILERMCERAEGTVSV
Sequence of UniProt P07949 (whole entry, unmodified, looked up): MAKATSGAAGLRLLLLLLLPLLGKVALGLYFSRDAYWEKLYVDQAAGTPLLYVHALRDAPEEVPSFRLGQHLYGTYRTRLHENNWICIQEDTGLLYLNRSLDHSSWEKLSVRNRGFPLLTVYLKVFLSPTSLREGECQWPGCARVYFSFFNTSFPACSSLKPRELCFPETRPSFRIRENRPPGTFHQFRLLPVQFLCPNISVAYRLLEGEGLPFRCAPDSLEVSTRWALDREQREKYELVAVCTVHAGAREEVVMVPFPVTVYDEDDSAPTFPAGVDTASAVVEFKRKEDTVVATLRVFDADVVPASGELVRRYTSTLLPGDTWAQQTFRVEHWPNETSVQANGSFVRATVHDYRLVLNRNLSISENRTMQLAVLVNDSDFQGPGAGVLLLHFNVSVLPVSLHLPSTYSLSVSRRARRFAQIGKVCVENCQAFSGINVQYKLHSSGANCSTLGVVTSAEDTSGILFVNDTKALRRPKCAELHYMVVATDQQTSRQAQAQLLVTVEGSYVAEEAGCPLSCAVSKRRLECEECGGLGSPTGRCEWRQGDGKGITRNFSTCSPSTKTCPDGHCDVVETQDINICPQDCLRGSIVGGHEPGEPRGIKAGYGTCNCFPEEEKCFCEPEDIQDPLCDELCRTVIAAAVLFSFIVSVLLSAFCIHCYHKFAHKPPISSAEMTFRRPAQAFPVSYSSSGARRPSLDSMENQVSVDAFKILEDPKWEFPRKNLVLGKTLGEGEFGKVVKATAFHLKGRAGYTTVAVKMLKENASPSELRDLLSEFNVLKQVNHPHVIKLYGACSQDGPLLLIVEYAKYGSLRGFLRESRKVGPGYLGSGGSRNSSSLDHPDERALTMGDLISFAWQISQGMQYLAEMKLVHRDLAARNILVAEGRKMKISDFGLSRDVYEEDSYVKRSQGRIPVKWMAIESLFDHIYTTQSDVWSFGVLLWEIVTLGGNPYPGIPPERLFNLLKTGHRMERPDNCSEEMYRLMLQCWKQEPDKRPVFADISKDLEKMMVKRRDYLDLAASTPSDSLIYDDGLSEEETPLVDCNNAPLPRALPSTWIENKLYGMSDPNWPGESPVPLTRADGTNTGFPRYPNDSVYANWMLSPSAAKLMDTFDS
Sequence of UniProt P42336 (whole entry, unmodified, looked up): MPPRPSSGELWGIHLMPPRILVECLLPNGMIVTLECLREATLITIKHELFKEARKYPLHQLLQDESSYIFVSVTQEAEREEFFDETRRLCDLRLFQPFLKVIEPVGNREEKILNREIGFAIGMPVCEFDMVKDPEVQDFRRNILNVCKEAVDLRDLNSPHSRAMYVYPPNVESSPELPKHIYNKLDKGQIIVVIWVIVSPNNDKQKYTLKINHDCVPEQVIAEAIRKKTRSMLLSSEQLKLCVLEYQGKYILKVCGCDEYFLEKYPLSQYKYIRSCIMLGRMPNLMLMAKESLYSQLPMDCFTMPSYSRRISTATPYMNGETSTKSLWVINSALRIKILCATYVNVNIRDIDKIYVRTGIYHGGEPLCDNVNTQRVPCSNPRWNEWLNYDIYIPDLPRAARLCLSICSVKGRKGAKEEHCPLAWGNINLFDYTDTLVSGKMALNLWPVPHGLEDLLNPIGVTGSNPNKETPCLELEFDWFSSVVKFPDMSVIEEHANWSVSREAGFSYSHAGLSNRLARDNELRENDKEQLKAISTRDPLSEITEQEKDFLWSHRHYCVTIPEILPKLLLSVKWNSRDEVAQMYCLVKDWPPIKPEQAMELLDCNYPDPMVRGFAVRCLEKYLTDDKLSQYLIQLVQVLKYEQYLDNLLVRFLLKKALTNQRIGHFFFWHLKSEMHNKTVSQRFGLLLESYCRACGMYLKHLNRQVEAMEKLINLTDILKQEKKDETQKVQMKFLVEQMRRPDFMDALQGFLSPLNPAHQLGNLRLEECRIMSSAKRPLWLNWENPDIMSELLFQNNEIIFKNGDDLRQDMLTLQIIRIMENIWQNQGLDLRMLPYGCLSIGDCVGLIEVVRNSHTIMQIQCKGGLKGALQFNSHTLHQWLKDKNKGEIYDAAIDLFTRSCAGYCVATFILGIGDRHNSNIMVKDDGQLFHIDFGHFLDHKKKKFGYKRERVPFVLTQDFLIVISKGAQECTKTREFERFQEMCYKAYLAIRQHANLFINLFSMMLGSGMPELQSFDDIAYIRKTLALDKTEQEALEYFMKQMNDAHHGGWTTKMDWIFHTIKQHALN
Sequence of UniProt Q6P2M8 (whole entry, looked up): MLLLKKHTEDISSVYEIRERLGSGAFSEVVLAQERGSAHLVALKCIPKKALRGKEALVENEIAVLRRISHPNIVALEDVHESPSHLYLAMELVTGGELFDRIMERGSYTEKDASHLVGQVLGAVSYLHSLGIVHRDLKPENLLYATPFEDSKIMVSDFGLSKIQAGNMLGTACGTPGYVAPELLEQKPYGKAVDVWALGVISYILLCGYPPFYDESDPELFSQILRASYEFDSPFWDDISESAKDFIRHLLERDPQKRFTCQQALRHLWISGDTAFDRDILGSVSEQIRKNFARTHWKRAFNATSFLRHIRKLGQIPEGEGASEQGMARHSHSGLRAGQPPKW

Series 1
Cell line: HaCaT
Tested at: 100 µM
Time: 36 h
Endpoint: viability
C=CC1=C(C(=O)O)N2C(=O)[C@@H](NC(=O)/C(=N\O)c3csc(N)n3)[C@H]2SC1: 61.3%
N[C@@H](CSCCCO)C(=O)O: 94.9%
Nc1ncnc2c1ncn2[C@@H]1O[C@H](CO)[C@@H](O)[C@@H]1O: 49.6%
CC1(C)NC(=O)N(c2ccc([N+](=O)[O-])c(C(F)(F)F)c2)C1=O: 65.3%
Cc1ccc(S(=O)(=O)NC(=O)NN2CCCCCC2)cc1: 20%
N=C(N)/N=C(\N)N1CCOCC1: 97.5%
Cc1cnc(NC(=O)C2=C(O)c3ccccc3S(=O)(=O)N2C)s1: 48%
CS(=O)(=O)c1ccc(C2=C(c3ccccc3)C(=O)OC2)cc1: 110%
COc1nc(C)nc(Cl)c1N=C1NCCN1: 100%

Series 2
Host: mouse
Matrix: microsomes or S9
Tested at: 2 µM
Time: 0.5 h
Endpoint: remaining compound
O=C(Cn1cnc2ccccc2c1=O)NCCn1ccc2cc(Br)ccc21: 0.61%
Cc1c(NC(=O)c2cnn3cc(Br)cnc23)c(=O)n(-c2ccccc2)n1C: 84%
CC(C)COc1cc(=O)n2c(c1C(=O)N1CCN(c3ccccn3)CC1)CCCCC2: 4.64%
COc1c(Cl)c(Nc2ccc3[nH]ncc3c2)nc(NC(C)C)c1Cl: 1.01%
CC(CNc1nc(-c2ccccc2)nc2nc(-c3ccccc3)oc12)N1CCN(C)CC1 (centres unmarked): 59.5%
N#Cc1ccc(-c2ccccc2CCOc2ncccn2)cc1: 2.46%

Series 3
SMILES: CC(C)C[C@@H]1NC(=O)[C@@H](N(C)C(=O)[C@H](CC2CCC2)NC(=O)[C@@H]2C[C@@H](F)CN2C(=O)C2(C(F)(F)F)CC(F)(F)C2)CCCCNC(=O)C2(CC2)NC(=O)[C@H](Cc2cc(Cl)ccc2Cl)N(C)C1=O
Technique: flow cytometry
Endpoint: cleaved PARP positive cells
human CD34+ HSPC; 10000 nM, 24 h: 2.87% and 2.26%
NCI-H1299; 200 nM, 72 h: 0.61% and 0.46% and 1.16%
NCI-H1299; 20 nM, 72 h: 0.22% and 0.54% and 0.34%
NCI-H446; 200 nM, 3 days, without Mps1 inhibitor: 28.6% and 23.4% and 26.8%

Series 4
Compound: Cc1nc(N2CC[C@@H](O)C2)ncc1-c1cc(C(F)(F)F)cc2[nH]ncc12
Tested at: 1 µM
Endpoint: remaining binding
Insulin receptor-related protein (INSRR, Homo sapiens, UniProt P14616); binding, competition with immobilised ligand: 87%
Rhodopsin kinase GRK1 (GRK1, Homo sapiens, UniProt Q15835); binding, competition with immobilised ligand: 52%
cAMP-dependent protein kinase catalytic subunit beta (PRKACB, Homo sapiens, UniProt P22694); cell-free assay, competition with immobilised ligand: 79%
Protein-tyrosine kinase 2-beta (PTK2B, Homo sapiens, UniProt Q14289); cell-free assay, competition with immobilised ligand: 100%
Tyrosine-protein kinase ABL1, phosphorylated (ABL1, Homo sapiens, UniProt P00519, F317I); binding: 87%
Ribosomal protein S6 kinase alpha-3 (RPS6KA3, Homo sapiens, UniProt P51812); binding, competition with immobilised ligand: 48%
Serine/threonine-protein kinase TBK1 (TBK1, Homo sapiens, UniProt Q9UHD2); binding, competition with immobilised ligand: 82%
Mitogen-activated protein kinase 15 (MAPK15, Homo sapiens, UniProt Q8TD08); binding, competition with immobilised ligand: 86%
Proto-oncogene tyrosine-protein kinase receptor Ret (RET, Homo sapiens, UniProt P07949, V804M); cell-free assay, competition with immobilised ligand: 96%
Myosin light chain kinase (MYLK3, Homo sapiens, UniProt Q32MK0); binding, competition with immobilised ligand: 98%
Focal adhesion kinase 1 (PTK2, Homo sapiens, UniProt Q05397); binding, competition with immobilised ligand: 86%
Glycogen synthase kinase-3 alpha (GSK3A, Homo sapiens, UniProt P49840); cell-free assay, competition with immobilised ligand: 54%
Cyclin-G-associated kinase (GAK, Homo sapiens, UniProt O14976); binding, competition with immobilised ligand: 83%
Calcium/calmodulin-dependent protein kinase type 1B (PNCK, Homo sapiens, UniProt Q6P2M8); cell-free assay, competition with immobilised ligand: 90%
Tyrosine-protein kinase ABL1, non-phosphorylated (ABL1, Homo sapiens, UniProt P00519); binding, competition with immobilised ligand: 83%
Tyrosine-protein kinase Tec (TEC, Homo sapiens, UniProt P42680); binding, competition with immobilised ligand: 84%
Muscle, skeletal receptor tyrosine-protein kinase (MUSK, Homo sapiens, UniProt O15146); binding, competition with immobilised ligand: 85%
Phosphatidylinositol 4,5-bisphosphate 3-kinase catalytic subunit alpha isoform (PIK3CA, Homo sapiens, UniProt P42336, H1047L); cell-free assay, competition with immobilised ligand: 93%
Serine/threonine-protein kinase MRCK alpha (CDC42BPA, Homo sapiens, UniProt Q5VT25); cell-free assay, competition with immobilised ligand: 100%

Excerpt of the above (series 1):
Nc1ncnc2c1ncn2[C@@H]1O[C@H](CO)[C@@H](O)[C@@H]1O: 49.6%
CC1(C)NC(=O)N(c2ccc([N+](=O)[O-])c(C(F)(F)F)c2)C1=O: 65.3%
